Experimental data of several laboratories.
Numbered parts are unrelated; each lists some results of a single study.

Sample 1 — technique: RNA Bind-n-Seq; molecule type: RNA; medium: in vitro; tested at: 100 nM; baseline: input RNA pool; reading: higher = stronger binding; measurement: bound/input enrichment
Target: RING finger protein unkempt homolog, zinc fingers 1-6, SBP tag (UNK, Homo sapiens, UniProt Q9C0B0, residues 30-357)
Chain of UniProt Q9C0B0 (30-357, looked up): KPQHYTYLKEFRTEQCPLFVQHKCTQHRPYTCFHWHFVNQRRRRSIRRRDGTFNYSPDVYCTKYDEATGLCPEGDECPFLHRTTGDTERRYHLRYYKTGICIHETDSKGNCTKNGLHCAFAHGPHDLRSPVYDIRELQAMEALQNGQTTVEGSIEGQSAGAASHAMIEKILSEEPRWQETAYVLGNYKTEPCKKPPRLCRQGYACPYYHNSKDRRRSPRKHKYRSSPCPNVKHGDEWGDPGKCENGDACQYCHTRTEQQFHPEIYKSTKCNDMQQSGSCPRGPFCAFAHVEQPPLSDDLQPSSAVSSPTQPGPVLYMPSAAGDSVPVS
Notes: RNA with constant flanks, vertebrate orthologous sites, ends assumed
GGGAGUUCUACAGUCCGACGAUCUUGUGGUUUCUAUUGUUUUCUCUUUAAUAUUUCAUGUACUAAACCUUAGAUAUACCAGUCUAUAGUUUUUGAUGGAAUUGGUAUAUUGACAGUUCUCAGCCAAGGAAUUGUUUCUCUGGACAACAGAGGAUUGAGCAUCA: 0.504 ratio
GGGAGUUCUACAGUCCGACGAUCCAGCUGAUUCACUUAUUGGGAGAGCUGCACACAUAGCUGUUCUGGAUUCAGAAAUAUUUUUAGAGAAAUUCUUUCUGGUUGCUGCCCUCAAAUAUUUCCAAUAGGAUAAAAACAUUGUUACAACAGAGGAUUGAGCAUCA: 1.13 ratio
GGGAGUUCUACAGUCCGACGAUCAUCGCCUCUCAACCCCAUUUCCUCUGUCUCAUAGUGCAGAAGCACUCUUCAACUCUAUCUUAGCGGACUUGUUUUAAUUUUAGAGGAAUUUCCAGUACAGAUACUGUGAGCUGAUAUGGACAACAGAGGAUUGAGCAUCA: 0.687 ratio
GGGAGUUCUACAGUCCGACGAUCUGCAUUAUUUGACCAGAGUUGAAGUGACAGAGUUUGAAGAUAUCAAAUCAGGUUACAGAAUAGAUUUUGUAAGUCUCCCUCCAUUUUUACCGCCGGGGGGGUCUCACCCUACGCUUCGGUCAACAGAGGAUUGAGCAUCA: 0.231 ratio
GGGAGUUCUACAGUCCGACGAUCGCAAUGAAAAAACAGCCCUCCUCCCAGCCCCCAUUUCACUAGGAGAUACAAACAUUAACGUAGAAGAGCAAUUUAACUCAAUAAAUUUAUCUUUUCAGGAUGAUCCAGACUCCAGUACCACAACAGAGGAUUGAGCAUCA: 0.988 ratio
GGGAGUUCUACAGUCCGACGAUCUAUAAUUAUGAAAUUCUAACGGAUUUUUAAUGUUUAAUUUCCCCUGACAUAUAGAGACUUUCUUUUUUUUUCCAGGCAGAUAAUUCAGAGUGUGCGAGUGUGUGUGCACAUGUUACAAAGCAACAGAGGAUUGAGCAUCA: 0.542 ratio
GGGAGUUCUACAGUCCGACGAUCAGGGAGUCUGGGUACGGGUGAGCAUUAACUUAUAAAGAAAUGAAAUGCUAAAAAUCCUAUUAGUACUAAGUUUAGUGGGAGAAUUUAAACCCCUUUUACAUAACUCUAAAACGAAAACCCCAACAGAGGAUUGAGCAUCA: 0.591 ratio
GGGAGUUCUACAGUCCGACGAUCGUUGUGACCCAUUUAACAUACACAAAAAACUAGCCAAAAAAAAUUUGCAUGUAAUUGACUUAGAUGAUGCCACUUUUCUGAGUGCAAAAUUUGGAAGACAACUUGUACCUGGUUGGAAGCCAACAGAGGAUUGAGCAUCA: 1.42 ratio
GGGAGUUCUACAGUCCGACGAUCGGUUGAUGUUCUGAAGAACCACUUAGUAAAAGAAGGUCGAGUAGAUGAAGAAAUUGCACUUAGAAUUAUCAAUGAGGGUGCUGCCAUCCUUCGGAGAGAAAAAACCAUGAUAGAAGUAGACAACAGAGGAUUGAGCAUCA: 1.48 ratio
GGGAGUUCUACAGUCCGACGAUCUGCCCCCACCCACUGUGAGAGGGAAUGGGGGAAGCCUGAUGACCCUCAGCUGUUCCAAUCUAGUAUUUUUUUUCUUUUUUAAAAUUACUGUAUUUAUUAUGACGACGGUGACUCCCCAGUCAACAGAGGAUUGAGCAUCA: 1.69 ratio
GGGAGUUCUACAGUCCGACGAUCAUCCUCAACUCGCUCUAGCCUGUGACCCUUCAAAACUGGGCCAGGAUUAGUGCGAGGUGCUAGGAAUUGCCGUCUCUCGCGCCAUUGAUCAGAGAGACAGACAUUAAAACAGGAAUAUCACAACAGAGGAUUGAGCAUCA: 0.221 ratio

Sample 2 — technique: EMSA with sequencing; molecule type: double-stranded DNA, one strand shown; medium: in vitro; tested at: 10 and 20 nM; baseline: negative control set to 0; reading: higher = stronger binding; measurement: normalised bound fraction
Target: Hepatocyte nuclear factor 3-alpha (Foxa1, Mus musculus, UniProt P35582, residues 1-468, full length assumed)
Notes: whole designed probe, mean of two concentrations, ends assumed
Target sequence (chain): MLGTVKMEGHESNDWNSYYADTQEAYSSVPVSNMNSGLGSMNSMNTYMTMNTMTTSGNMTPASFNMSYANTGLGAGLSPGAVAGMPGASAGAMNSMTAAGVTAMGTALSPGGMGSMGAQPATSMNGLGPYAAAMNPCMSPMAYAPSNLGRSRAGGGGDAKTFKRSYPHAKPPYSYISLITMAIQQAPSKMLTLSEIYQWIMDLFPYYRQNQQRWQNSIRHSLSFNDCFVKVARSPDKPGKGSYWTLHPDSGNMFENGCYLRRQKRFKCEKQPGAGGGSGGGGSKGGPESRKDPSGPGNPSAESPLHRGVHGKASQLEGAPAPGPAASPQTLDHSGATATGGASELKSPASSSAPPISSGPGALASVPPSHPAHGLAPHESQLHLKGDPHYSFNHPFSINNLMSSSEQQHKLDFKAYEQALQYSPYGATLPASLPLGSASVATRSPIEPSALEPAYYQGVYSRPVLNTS
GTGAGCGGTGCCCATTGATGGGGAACCTTTTAGTCCTTTTGTTTTACAGTCTCACAGTTAATTGTTCTTAGTTGATTTATCTTTTCTTACTCTTTCATAAGACTTTTCTTTTATCTCATGTTTACTTTGTTCTTATATTACTTATTTACTTAGTTTCTTCTTATCACCTTAGGCTTTGTTTTAATTATTTCCTTTTTATGTTATCTATTTTTCATTTTATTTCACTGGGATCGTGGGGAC: 0.544 ratio
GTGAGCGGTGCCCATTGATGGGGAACAAAAAAAAAAAGTGTGGATAATTCTAAAAGGGTCACAGCTCAGGCCCCATGATGTAAGTCTCTCTGGGAAGGGTGGCGTTGGCCATCACGCTGTGTAATCTGGGATCCCGGGGGCCAGCATCGCACTGCTCTCCATCCCCAGCGAAAGGAAGGGAGGCAGACACTGGGCAGCGGCACTCGGAGTCCACCCAGTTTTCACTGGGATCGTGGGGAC: -0.0486 ratio
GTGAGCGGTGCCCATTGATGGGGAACCACCGCGCTCGCACGGCTTTGTCCGTGCTACAAAGCAGCCTGTTAAACTATTGGAACTAATGCGCCGCAGCTGCGCGAGTGACTTCTGCTGCTTATGTACATAAAAAGTCCTGGGGGGAGGGCTTAACCATCAGATGCCTGCTGCTGGGTTGTTTGGCTAGTCTTTCCATTTGCTTATTCCTGAATCCAAAGGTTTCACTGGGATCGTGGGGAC: 0.335 ratio
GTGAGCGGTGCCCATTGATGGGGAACATCTTCCCCCTCTTCCTTGCCCCACCAGCTCACCTTCCCGGGTTATTTGCACAAAGGAAAATAAATAAAGCCGGCATTCGTTAACCCTCTTCTGGCGCAAACTGCTGTTTGCTCTGGATGAATCATGGTCCTTTGGCGAGGCGTGGCTCCGGGAGAGCAAAGCACCGTGTCAGGGCCATGATCCGGGCTCGCCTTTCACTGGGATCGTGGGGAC: 0.366 ratio
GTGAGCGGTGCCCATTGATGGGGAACAGAACTGTTTGTGTACGAACCGTTCAAATACAAAGCTAGCAACACAGCTCTCCTTCAGCCTCTACACACGTCCACCGGCTGCTCTTTTAATTCTGTTGACACAATAAGTGAGTCAGAGAAGGTGGGACAATGACCCTGATGGAGGATGGGAAAAGCTGTCTATACTCAAACACAAAACAAGAGTAAATGAAAATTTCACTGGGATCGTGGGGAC: 0.289 ratio
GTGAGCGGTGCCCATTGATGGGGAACCTTCTTAGCCCTGGTGCTATTTCTTGGCTTCCACACATTCTGTACAATTGCAGCCCTGACAGCTAATTTAGCTTCACTGTTGGTGAGTTTCTTGTTTGCTTTTGCTGCTGTCCAAATGATTCAAGGTGCTGAATGACGCCATCTGTATGTTGCTAGAGGCTGAGAGGGGGCTGGGAGGAAGCCTTAAGTCAAGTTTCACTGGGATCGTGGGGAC: 0.372 ratio
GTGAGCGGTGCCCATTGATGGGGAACATCTTCCCCCTCTTCCTTGCCCCACCAGCTCACCTTCCCGGGTATATTGGAGATAGGAAATTAATATAAGCCGGCATTCGTTAACCCTCTTCACGCGCATACTGCACATTGGTCTGGATCTAACATGGTCCTTTGGCGACGCCAGGCTCCGGGAGAGCAAAGCACCGTGTCAGGGCCATGATCCGGGGTGGCCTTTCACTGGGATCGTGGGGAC: 0.0334 ratio
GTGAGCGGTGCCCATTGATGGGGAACAGTGATACTTAATGTATACTGATTAATGGAACATGTTGCAAAATAATTGACATTACTCGGCCAATCTTGTTCGCTAAGTAAAGAAAATAGTGCTTGTTTACATTATCTTTAACAGCACTCTTAAAGATTTTAGCTAGAAGTTTGGGATAAATTTGACACATTATGAAATTGTTAATATGCAATAAAGGTATATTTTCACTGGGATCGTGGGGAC: 0.31 ratio

Sample 3 — technique: universal PBM; molecule type: double-stranded DNA, one strand shown; medium: in vitro; tested at: 600 nM; reading: higher = stronger binding; measurement: E-score
Target: Sal-like protein 4, full length isoform A (SALL4, Homo sapiens, UniProt Q9UJQ4, residues 1-1053)
Chain of UniProt Q9UJQ4 (whole entry, looked up): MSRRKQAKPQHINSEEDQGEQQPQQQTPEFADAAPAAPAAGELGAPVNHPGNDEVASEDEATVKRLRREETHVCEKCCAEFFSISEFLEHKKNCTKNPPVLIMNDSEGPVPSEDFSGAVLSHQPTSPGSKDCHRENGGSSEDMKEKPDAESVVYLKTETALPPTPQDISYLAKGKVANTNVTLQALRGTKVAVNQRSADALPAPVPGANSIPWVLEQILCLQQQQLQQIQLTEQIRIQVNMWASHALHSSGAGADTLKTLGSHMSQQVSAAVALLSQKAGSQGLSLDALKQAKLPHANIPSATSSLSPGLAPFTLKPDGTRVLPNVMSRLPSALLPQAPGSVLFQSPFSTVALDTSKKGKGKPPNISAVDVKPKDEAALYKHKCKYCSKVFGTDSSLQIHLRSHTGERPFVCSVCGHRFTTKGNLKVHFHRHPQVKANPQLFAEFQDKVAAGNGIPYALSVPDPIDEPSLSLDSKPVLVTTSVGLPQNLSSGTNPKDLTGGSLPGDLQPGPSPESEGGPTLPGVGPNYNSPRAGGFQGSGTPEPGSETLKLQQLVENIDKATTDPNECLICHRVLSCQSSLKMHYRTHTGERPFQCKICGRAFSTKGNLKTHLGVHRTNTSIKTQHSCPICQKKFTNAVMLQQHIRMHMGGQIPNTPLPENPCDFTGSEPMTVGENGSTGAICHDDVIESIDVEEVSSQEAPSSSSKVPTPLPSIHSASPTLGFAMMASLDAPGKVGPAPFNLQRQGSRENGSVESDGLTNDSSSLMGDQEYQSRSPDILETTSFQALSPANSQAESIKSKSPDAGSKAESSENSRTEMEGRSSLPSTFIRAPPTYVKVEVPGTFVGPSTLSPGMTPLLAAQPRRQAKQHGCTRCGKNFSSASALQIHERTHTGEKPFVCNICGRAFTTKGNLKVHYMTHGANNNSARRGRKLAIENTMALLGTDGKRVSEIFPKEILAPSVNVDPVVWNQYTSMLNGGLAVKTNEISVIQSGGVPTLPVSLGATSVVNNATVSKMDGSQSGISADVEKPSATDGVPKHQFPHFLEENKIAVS
Notes: 8-mer, flanks averaged, mean of replicates
ATAGTAAG: 0.186
GCTTCCCC: -0.267
CGAGATAG: -0.235
CCATCGGG: -0.257
ACGAGGTC: -0.0331
ATTCCAAG: 0.163
ATTCTGAC: 0.0474
GCATGAAC: -0.00843
CAAGAGAA: 0.127
CTGTGACC: -0.225
ACGCAGTC: -0.287
CGTGGCGC: -0.282
ACCGGAGT: -0.277
CGAGACTC: -0.13
ACACATGT: 0.0922
ACCAGTAC: -0.149
CAAGATTG: 0.128
ATCGACCA: -0.133
CATAGAGA: 0.148
GCCACTGA: -0.102
AGCACAGC: -0.137
CCGGGGTC: -0.395
GATCTCGA: -0.189
CTTAGGTA: 0.0615
ATGCACAG: -0.0768

Sample 4 — technique: RNAcompete; molecule type: RNA; medium: in vitro; tested at: 20 nM; notes: 7-mer, probes averaged, single round; baseline: mean of 7-mers; reading: higher = stronger binding; measurement: 7-mer Z-score
Target: PABPC1L2, full length, GST fusion (mouse, UniProt A0ABA7IW68)
Residues (chain): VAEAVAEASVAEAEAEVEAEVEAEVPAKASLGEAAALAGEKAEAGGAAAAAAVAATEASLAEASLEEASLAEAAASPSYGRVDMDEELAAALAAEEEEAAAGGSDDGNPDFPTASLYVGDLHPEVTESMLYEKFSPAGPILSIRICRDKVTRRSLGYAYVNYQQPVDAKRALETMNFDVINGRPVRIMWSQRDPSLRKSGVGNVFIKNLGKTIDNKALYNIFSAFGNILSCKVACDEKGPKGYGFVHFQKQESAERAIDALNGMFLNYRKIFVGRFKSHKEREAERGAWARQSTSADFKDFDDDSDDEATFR
UUGGAAC: -0.0264
ACAUCCA: -0.0971
UGGGUUC: -0.22
UGAGCAC: -0.153
UGCCCGG: -0.449
AUGAAAC: 0.173
CCCAUAU: -0.398
UGAUGAU: -0.244
CUGAGGG: 0.102
CUUUAAU: 0.144
AUUUUUC: -0.17
ACACUCC: -0.18
UUAUCGA: -0.0935
GGGUGGA: 0.271
AAUGCGU: -0.17
GGCGUAG: 0.0805
CUCAUGU: -0.307
CCGGCCU: -0.46
CGCAAAA: 4.18
CAGUUGA: -0.126
AGCGAUC: -0.0971
GGUAUUC: -0.13

Some of these lines once more (sample 4):
UGAGCAC: -0.153
UGCCCGG: -0.449
AUGAAAC: 0.173
CCCAUAU: -0.398
UGAUGAU: -0.244
CUGAGGG: 0.102
CUUUAAU: 0.144
AUUUUUC: -0.17
ACACUCC: -0.18
UUAUCGA: -0.0935
